{"data": "Measured values collected from several papers", "note": "A part holds a random share of what one study measured."}
{"data": "Series 1", "target": "Replicase polyprotein 1ab, polymerase (rep, Severe acute respiratory syndrome coronavirus 2, UniProt P0DTD1)", "effect on": "enzyme activity", "action": "inhibitor", "tested at": "20 µM"}
{"SMILES": "CCOC(=O)[C@H](CCc1ccccc1)N[C@H]1CCc2ccccc2N(CC(=O)O)C1=O", "inhibition": "-4.04%"}
{"SMILES": "CC(=O)N[C@@H](Cc1ccc(O)cc1)C(=O)O", "inhibition": "3.53%"}
{"SMILES": "c1ccc2nc(C3=NCCN3)cnc2c1", "inhibition": "0.54%"}
{"SMILES": "CC[C@@H](c1ccc(F)c(F)c1)n1c(C(=O)OC)c(-c2ccno2)[nH]c1=S", "inhibition": "1.88%"}
{"SMILES": "Cc1cc(Cn2cnc3c2C[C@@H](C(=O)O)N(C(=O)C(c2ccccc2)c2ccccc2)C3)ccc1N(C)C", "inhibition": "-0.51%"}
{"SMILES": "CN(C)CCNc1nc2cc(O)ccc2c2c1C(=O)c1ccccc1-2", "inhibition": "68.6%"}
{"SMILES": "O=c1ccc2ccc(O)c(O)c2o1", "inhibition": "0.07%"}
{"SMILES": "CCN[C@@H](C)Cc1cccc(C(F)(F)F)c1", "inhibition": "5.9%"}
{"SMILES": "O=C(OCCO)c1ccccc1O", "inhibition": "-10.1%"}
{"SMILES": "COc1ccc2cc(CCC(C)=O)ccc2c1", "inhibition": "4.32%"}
{"SMILES": "CN1C(=O)OC(C)(C)C1=O", "inhibition": "-2.24%"}
{"SMILES": "COc1ccc2c(c1OC)C(=O)O[C@@H]2[C@H]1c2c(cc3c(c2OC)OCO3)CCN1C", "inhibition": "20.4%"}
{"SMILES": "CCOc1c(N2CCOCC2)cnn(C)c1=O", "inhibition": "-2.52%"}
{"SMILES": "Cc1cc(Nc2ncnc3ccc(NC4=NC(C)(C)CO4)cc23)ccc1Oc1ccn2ncnc2c1", "inhibition": "2.19%"}
{"SMILES": "Cc1ccc([N+](=O)[O-])cc1O", "inhibition": "3.31%"}
{"SMILES": "C[C@]12COC(=O)C[C@@H]1CC[C@@H]1[C@@H]2CC[C@@]2(C)[C@H]1CC[C@]2(C)O", "inhibition": "-0.25%"}
{"SMILES": "C=CC(=O)Nc1cccc(Oc2nc(Nc3ccc(N4CCN(C)CC4)cc3)ncc2Cl)c1", "inhibition": "-1.12%"}
{"SMILES": "CS(=O)(=O)N(Cc1ccco1)CC(O)Cn1c2ccccc2c2ccccc21 (centres unmarked)", "inhibition": "-2.89%"}
{"SMILES": "C[C@]12C[C@H](O)[C@H]3[C@@H](CCC4=CC(=O)CC[C@@]43C)[C@@H]1CC[C@@H]2C(=O)CO", "inhibition": "3.07%"}
{"SMILES": "O=C1C[C@@H](c2ccc(O)cc2)Oc2cc(O)cc(O)c21", "inhibition": "1.66%"}
{"SMILES": "COc1ccc(CNC(=O)Nc2ncc([N+](=O)[O-])s2)cc1", "inhibition": "4.9%"}
{"SMILES": "N[C@H]1CCN(O)C1=O", "inhibition": "3.42%"}
{"SMILES": "C[C@H](Oc1ccc(S(C)(=O)=O)cc1C(=O)N1CCN(c2ncc(C(F)(F)F)cc2F)CC1)C(F)(F)F", "inhibition": "3.51%"}
{"SMILES": "Oc1ccc2c(c1)CC[C@H](c1ccccc1)[C@@H]2c1ccc(OCCN2CCCC2)cc1", "inhibition": "0.34%"}
{"data": "Series 2", "target": "RNA binding protein fox-1 homolog 2, RRM domain, GST-SBP tag (RBFOX2, Homo sapiens, UniProt O43251-10, residues 100-194)", "method": "RNA Bind-n-Seq", "form": "RNA", "sample": "in vitro", "tested at": "365 nM", "notes": "natural RNA segment, single round, ends assumed", "reference": "no-protein control", "reading": "higher = stronger binding", "shared flanks, not repeated": "GGGAGUUCUACAGUCCGACGAUC … UGGAAUUCUCGGGUGCCAA", "Target sequence (chain)": "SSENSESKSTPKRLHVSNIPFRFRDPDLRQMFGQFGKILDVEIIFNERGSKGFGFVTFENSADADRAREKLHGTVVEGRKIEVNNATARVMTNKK"}
{"Sequence": "UUCUCCUCAGCGCCACACUCACAUAUUUCUCUGCUUUGGUUCUACAAUCUGUUGUUGAGUUCCCCCUCUCUGCAUCAGUCUUCCCUGGAAAUGGAGGACCUGGUGCAGUA", "RBNS enrichment (R)": 0.435}
{"Sequence": "GCUGCCAGGAUUGUCACUCCAAACCUUACUCUGAGCUCAUUAAUAAAAUAGAUUUAUUUUCCAGCUUUAGGAGUGAGUGUGGAUUUGGGCAGCAGAUUCAAGGCUGCAAA", "RBNS enrichment (R)": 0.437}
{"Sequence": "AGUUUGAUAACUAGGGAAGAAAGCAGAACAGUUAAGCAGCCGCCACAUCCCCGCUGGCUGGGGGCCUCACUCCAGGAAGGGGCUGGACUGGCUGUCCUUUCCAGUGGCCU", "RBNS enrichment (R)": 0.215}
{"Sequence": "UUACAGGUCGUUAUUCUUCUAAGCAGUAGGUAACUUUUCCUGGGUUUCAUUCUUUCUAGUGUACUAGAUCCAGAAAUUUAGUGUGAUGCCCUGCUUUCUCUUUUCUUUGA", "RBNS enrichment (R)": 0.294}
{"Sequence": "GAUCUGCUUCAGGUGUAGUCUGGAAGGUUCCUUGGUAUGGCUCAUGAACACAGAGCUCAAAGAUACCGUCUUGAGAAAUCCUCCUUGGUACCAUGUGACCGGAGCAGAGG", "RBNS enrichment (R)": 0.289}
{"Sequence": "UAAUGUGGCACCAUGCAGAUGUGACUUGAUUUGGCUGAGAGCUACCUUUCCUGAAGUAUGCACCCUAGAAAAGAAUUGUGUGCUAAUGCUUGUCAGAGCUGUGGCAGUAC", "RBNS enrichment (R)": 0.501}
{"Sequence": "AAGGGUACCCAGACCUCACUUUUAGUUAUUUACAUCAAUGAGUUCUUUCAGGGAACCAAACCCAGAAUUCGGUGCAAAAGCCAAACAUCUUGGUGGGAUUUGAUAAAUGC", "RBNS enrichment (R)": 0.32}
{"Sequence": "CAUCUGCUUGGCUGACCCCACACCCAGGACCACUGUCCGGCUCUAACACAGCUAUUAAGUGCUACCUGCCUCUCAGGCACUCUCCUCGCCCAGUUUCUGAGGUCAGACGA", "RBNS enrichment (R)": 0.349}
{"data": "Series 3", "target": "Histone acetyltransferase KAT6A, winged helix 2, GST fusion (KAT6A, Homo sapiens, UniProt Q92794, residues 85-181)", "method": "protein binding microarray", "form": "double-stranded DNA, one strand shown", "sample": "in vitro", "tested at": "not given", "notes": "8-mer, flanks averaged, mean of 2 arrays, mostly near background", "reference": "not given", "reading": "higher = stronger binding", "Construct (chain)": "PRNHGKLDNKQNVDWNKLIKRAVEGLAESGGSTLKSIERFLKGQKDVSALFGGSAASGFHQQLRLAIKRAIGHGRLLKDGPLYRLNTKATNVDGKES"}
{"Sequence": "GATTCGGC", "E-score": 0.129}
{"Sequence": "AGTCATAC", "E-score": -0.169}
{"Sequence": "GCGAGCCA", "E-score": 0.136}
{"Sequence": "CCCGTAAA", "E-score": 0.0373}
{"Sequence": "GTGCGGTA", "E-score": 0.279}
{"Sequence": "GAGTAAGC", "E-score": -0.14}
{"Sequence": "AGTCTCTA", "E-score": -0.122}
{"Sequence": "GGCCGCCA", "E-score": 0.104}
{"data": "Series 4", "target": "Sal-like protein 4, full length isoform B (SALL4, Homo sapiens, UniProt Q9UJQ4-2, residues 1-616)", "method": "universal PBM", "form": "double-stranded DNA, one strand shown", "sample": "in vitro", "tested at": "not given", "notes": "8-mer, flanks averaged, mean of replicates", "reading": "higher = stronger binding"}
{"Sequence": "CCCTACTC", "E-score": -0.0568}
{"Sequence": "CGACATTA", "E-score": 0.157}
{"Sequence": "ATGGACGG", "E-score": 0.00192}
{"Sequence": "CAAGTCCC", "E-score": -0.218}
{"Sequence": "GCCTCGGA", "E-score": -0.288}
{"Sequence": "AATCTGGG", "E-score": -0.042}
{"Sequence": "ATTTAAAC", "E-score": 0.233}
{"Sequence": "CGCTCTGA", "E-score": -0.285}
{"data": "Mixed results"}
{"Compound": "C#CCN[C@@H]1CCc2ccccc21", "cell line": "HEK-293T", "organism": "VSV pseudotyped with SARS-CoV-2 spike", "tested at": "10 µM", "time": "16 h", "measurement": "pseudovirus infection", "value": "97%"}
{"Compound": "Nc1ccn([C@@H]2O[C@H](CO)[C@@H](O)C2(F)F)c(=O)n1", "cell line": "HEK-293T/ACE2", "tested at": "concentration not given", "time": "16 (unit not given)", "reference": "vehicle", "measurement": "viability", "value": "76.8%"}
{"note": "Some of these lines once more (series 2):"}
{"Sequence": "AAGGGUACCCAGACCUCACUUUUAGUUAUUUACAUCAAUGAGUUCUUUCAGGGAACCAAACCCAGAAUUCGGUGCAAAAGCCAAACAUCUUGGUGGGAUUUGAUAAAUGC", "RBNS enrichment (R)": 0.32}
{"Sequence": "AGUUUGAUAACUAGGGAAGAAAGCAGAACAGUUAAGCAGCCGCCACAUCCCCGCUGGCUGGGGGCCUCACUCCAGGAAGGGGCUGGACUGGCUGUCCUUUCCAGUGGCCU", "RBNS enrichment (R)": 0.215}
{"Sequence": "UUACAGGUCGUUAUUCUUCUAAGCAGUAGGUAACUUUUCCUGGGUUUCAUUCUUUCUAGUGUACUAGAUCCAGAAAUUUAGUGUGAUGCCCUGCUUUCUCUUUUCUUUGA", "RBNS enrichment (R)": 0.294}
{"Sequence": "GAUCUGCUUCAGGUGUAGUCUGGAAGGUUCCUUGGUAUGGCUCAUGAACACAGAGCUCAAAGAUACCGUCUUGAGAAAUCCUCCUUGGUACCAUGUGACCGGAGCAGAGG", "RBNS enrichment (R)": 0.289}
{"Sequence": "UAAUGUGGCACCAUGCAGAUGUGACUUGAUUUGGCUGAGAGCUACCUUUCCUGAAGUAUGCACCCUAGAAAAGAAUUGUGUGCUAAUGCUUGUCAGAGCUGUGGCAGUAC", "RBNS enrichment (R)": 0.501}
{"Sequence": "UUCUCCUCAGCGCCACACUCACAUAUUUCUCUGCUUUGGUUCUACAAUCUGUUGUUGAGUUCCCCCUCUCUGCAUCAGUCUUCCCUGGAAAUGGAGGACCUGGUGCAGUA", "RBNS enrichment (R)": 0.435}
{"Sequence": "GCUGCCAGGAUUGUCACUCCAAACCUUACUCUGAGCUCAUUAAUAAAAUAGAUUUAUUUUCCAGCUUUAGGAGUGAGUGUGGAUUUGGGCAGCAGAUUCAAGGCUGCAAA", "RBNS enrichment (R)": 0.437}
{"Sequence": "CAUCUGCUUGGCUGACCCCACACCCAGGACCACUGUCCGGCUCUAACACAGCUAUUAAGUGCUACCUGCCUCUCAGGCACUCUCCUCGCCCAGUUUCUGAGGUCAGACGA", "RBNS enrichment (R)": 0.349}
